# Published values pooled from the literature.
# Values joined by “and” are separate records of one study, mostly repeats; a detail may differ. ± gives the spread as reported.
SMILES,test,test system,conditions,scale,measurement,result
O=C(OC(C(F)(F)F)C(F)(F)F)N1CCN(Cc2cccc(Oc3ccccc3)c2)CC1,PET blocking study,"rhesus monkey, brain CB","0.01 mg/kg, compound pretreatment, with: [18F]T-401 tracer",,Ktrans,0.0061 min⁻¹
N=C(N)c1ccc2cc(C#Cc3cccc(OC4CCCC4)c3)ccc2c1,,octanol/buffer,"pH 11, urokinase ligand set",,logP,4.15
CC(C)(C(=O)N1CCOc2c(C#N)cncc2C1)C(F)F,measured: Vascular disorders,human,"oral, 20 mg twice daily, 14 days, multiple ascending dose",,subjects with adverse event,0%
COc1cc(/C=C/C(=O)OC2C(O)CC(O)(C(=O)O)CC2O)ccc1O (stereo not drawn),,"human, cerebrospinal fluid","concentration not given, mean",,CSF concentration,1.8 nM
O=C(COc1ccc(Cl)cc1)NC12CC(c3nnc([C@H]4C[C@@H](OC(F)(F)F)C4)o3)(C1)C2,measured: abnormal haematology test,"healthy humans, both sexes","oral, 400 mg, single ascending dose",relative to: subjects,treatment-emergent adverse events,16.7%
COc1ccc([C@@H](O)c2cc(-c3ncnc4cc(N5CCOCC5)ccc34)c(F)cc2Cl)nn1,,locally advanced rectal cancer patients,"150 mg, with: capecitabine and radiotherapy",,gastrointestinal disorder TEAE,100%
Cn1cnc2c(F)c(Nc3ccc(Br)cc3Cl)c(C(=O)NOCCO)cc21,population PK model,"human, plasma","oral, sequential zero-first-order absorption, fed",,zero-order absorption duration,4.73 h
Cc1cc(-c2nccc3c2ccn3CC(=O)Nc2ccc(-c3cnccn3)cn2)ccn1,measured: AUCtau,"human, plasma","oral, 20 mg once daily",relative to: day 16 over day 1,accumulation ratio,1.93
COc1c(OCCCN2CCOCC2)ccc2c1N=C(NC(=O)c1cnc(N)nc1)N1CCN=C21,,human,,relative to: Japan over other regions,decrease in clearance,20.4%
CCc1cc(C(=O)NC)c2nccc(N3CCc4c(cc(Cn5ccnc5)cc4-c4cn(C)nc4C(F)(F)F)C3=O)c2c1,,Sprague Dawley rats,"oral, 50 mg/kg once daily, 7 days",relative to: vehicle,serum TG change,-7.6%
CC(C)n1c(Nc2cccnc2)nc2cnc(Nc3ccc(N4CCN(C)CC4)cc3)nc21,measured: platelet count decreased,healthy male subjects,"oral, 100 mg, study, with: gemfibrozil",,subjects with adverse event,0%
CC[N+]([O-])(CC)CCNC(=O)c1c(C)[nH]c(/C=C2\C(=O)Nc3ccc(F)cc32)c1C,,"human, serum",37.5 mg maintenance dose,,serum concentration,0.41 ng/mL
Cc1nc(C)c(-c2ccnc(Nc3ccc(Cl)cc3)n2)s1,,"octanol/buffer, 40 mM buffer",pH 11,,logP,4.23
COCCCC/C(=N\OCCN)c1ccc(C(F)(F)F)cc1,"total metabolite formation, inhibitor",human hepatocytes suspension,"1 µM, 90 min, with: ropinirole 1 µM",,inhibition,85%
CC(C)c1nc(N(C)S(C)(=O)=O)nc(-c2ccc(F)cc2)c1/C=C/[C@@H](O)C[C@@H](O)CC(=O)O,,"Wistar albino rat, both sexes, plasma","oral, 20 mg/kg",,elimination rate constant,1.25e-05 s⁻¹ and 2.44e-05 s⁻¹ and 2.53e-05 s⁻¹ and 2.31e-05 s⁻¹
O=C1CCc2ccc(OCCCCN3CCN(c4cccc(Cl)c4Cl)CC3)cc2N1,,CYP2D6 intermediate metabolizers,"concentration not given, genotype-based phenotype, long-acting oral or depot",,gastrointestinal symptom frequency,8.5%
COc1ccccc1OCCNCC(O)COc1cccc2[nH]c3ccccc3c12 (stereo not drawn),,0.2% w/v Kollidon VA64,"pH 6.5, 37 °C, supersaturation ratio 5",,nucleation induction time,2.72 ± 0.09 min
C=CC[C@@H]1/C=C(\C)C[C@H](C)C[C@H](OC)[C@H]2O[C@@](O)(C(=O)C(=O)N3CCCC[C@H]3C(=O)O[C@H](/C(C)=C/[C@@H]3CC[C@@H](O)[C@H](OC)C3)[C@H](C)[C@@H](O)CC1=O)[C@H](C)C[C@@H]2OC,,"rat, Wistar Kyoto, male","intraperitoneal, 0.5 mg/kg/day, day 18",,food intake,20.6 ± 1.8 g/24 h
CN(CC#N)C(=O)C[C@H](Nc1nc2ccccc2[nH]1)c1cccc(C(F)(F)F)c1,,human,"intravenous infusion, 6 mg/kg, 1 mg/mL formulation",,steady-state volume of distribution,65 ± 12 L
FC(F)(F)c1ccc(CNc2ccc(Cc3c[nH]c4ncc(Cl)cc34)cn2)cn1,,patients with advanced solid tumours,"oral, 1000 mg/day, all patients, all grades",,decreased appetite incidence,31%
Cc1c(C(=O)O)ccc2c3n(nc12)[C@@H]1[C@H](C3)N(CC2CC2)[C@@]2(C(=O)Nc3cc(Cl)ccc32)[C@H]1c1cccc(Cl)c1F,"phase Ia trial, measured: Diarrhea",cancer patients,"oral, dose not given",,adverse event incidence,44%

# Excerpt of the above:
SMILES,test,test system,conditions,scale,measurement,result
CCc1cc(C(=O)NC)c2nccc(N3CCc4c(cc(Cn5ccnc5)cc4-c4cn(C)nc4C(F)(F)F)C3=O)c2c1,,Sprague Dawley rats,"oral, 50 mg/kg once daily, 7 days",relative to: vehicle,serum TG change,-7.6%
CC(C)n1c(Nc2cccnc2)nc2cnc(Nc3ccc(N4CCN(C)CC4)cc3)nc21,measured: platelet count decreased,healthy male subjects,"oral, 100 mg, study, with: gemfibrozil",,subjects with adverse event,0%
CC[N+]([O-])(CC)CCNC(=O)c1c(C)[nH]c(/C=C2\C(=O)Nc3ccc(F)cc32)c1C,,"human, serum",37.5 mg maintenance dose,,serum concentration,0.41 ng/mL
